Published values collected from several papers.
Compare with care: the assays were run in different laboratories. Numbers after ± are the reported error.
Sequence of UniProt Q9GZQ4 (whole entry, looked up): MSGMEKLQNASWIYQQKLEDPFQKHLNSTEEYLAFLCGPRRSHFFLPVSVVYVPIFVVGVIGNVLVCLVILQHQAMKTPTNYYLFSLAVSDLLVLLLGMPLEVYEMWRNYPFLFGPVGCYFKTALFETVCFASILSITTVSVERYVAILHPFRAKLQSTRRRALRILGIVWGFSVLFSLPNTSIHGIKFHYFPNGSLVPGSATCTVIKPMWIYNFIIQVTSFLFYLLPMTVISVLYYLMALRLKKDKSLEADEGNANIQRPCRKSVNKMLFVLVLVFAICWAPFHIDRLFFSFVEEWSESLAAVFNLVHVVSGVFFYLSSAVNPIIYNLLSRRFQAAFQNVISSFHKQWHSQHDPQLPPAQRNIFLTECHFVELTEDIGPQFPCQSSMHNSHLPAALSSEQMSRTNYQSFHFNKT
Sequence of UniProt P23977 (whole entry, looked up): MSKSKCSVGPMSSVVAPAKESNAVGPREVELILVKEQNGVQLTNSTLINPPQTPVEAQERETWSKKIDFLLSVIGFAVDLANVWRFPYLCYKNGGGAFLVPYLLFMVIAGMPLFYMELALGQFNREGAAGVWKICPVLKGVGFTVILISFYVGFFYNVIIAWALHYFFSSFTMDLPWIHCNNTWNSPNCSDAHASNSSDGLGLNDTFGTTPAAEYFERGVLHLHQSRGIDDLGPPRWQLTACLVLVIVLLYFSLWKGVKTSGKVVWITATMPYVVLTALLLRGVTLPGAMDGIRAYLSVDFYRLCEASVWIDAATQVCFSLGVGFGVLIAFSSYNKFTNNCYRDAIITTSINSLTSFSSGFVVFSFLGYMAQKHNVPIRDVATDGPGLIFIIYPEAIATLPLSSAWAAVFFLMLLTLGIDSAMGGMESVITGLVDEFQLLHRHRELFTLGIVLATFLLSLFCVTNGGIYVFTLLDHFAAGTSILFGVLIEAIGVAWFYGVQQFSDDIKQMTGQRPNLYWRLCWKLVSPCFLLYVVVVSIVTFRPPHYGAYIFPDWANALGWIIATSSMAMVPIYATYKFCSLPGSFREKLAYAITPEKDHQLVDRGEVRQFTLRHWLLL
Sequence of UniProt P10721 (whole entry, unmodified, looked up): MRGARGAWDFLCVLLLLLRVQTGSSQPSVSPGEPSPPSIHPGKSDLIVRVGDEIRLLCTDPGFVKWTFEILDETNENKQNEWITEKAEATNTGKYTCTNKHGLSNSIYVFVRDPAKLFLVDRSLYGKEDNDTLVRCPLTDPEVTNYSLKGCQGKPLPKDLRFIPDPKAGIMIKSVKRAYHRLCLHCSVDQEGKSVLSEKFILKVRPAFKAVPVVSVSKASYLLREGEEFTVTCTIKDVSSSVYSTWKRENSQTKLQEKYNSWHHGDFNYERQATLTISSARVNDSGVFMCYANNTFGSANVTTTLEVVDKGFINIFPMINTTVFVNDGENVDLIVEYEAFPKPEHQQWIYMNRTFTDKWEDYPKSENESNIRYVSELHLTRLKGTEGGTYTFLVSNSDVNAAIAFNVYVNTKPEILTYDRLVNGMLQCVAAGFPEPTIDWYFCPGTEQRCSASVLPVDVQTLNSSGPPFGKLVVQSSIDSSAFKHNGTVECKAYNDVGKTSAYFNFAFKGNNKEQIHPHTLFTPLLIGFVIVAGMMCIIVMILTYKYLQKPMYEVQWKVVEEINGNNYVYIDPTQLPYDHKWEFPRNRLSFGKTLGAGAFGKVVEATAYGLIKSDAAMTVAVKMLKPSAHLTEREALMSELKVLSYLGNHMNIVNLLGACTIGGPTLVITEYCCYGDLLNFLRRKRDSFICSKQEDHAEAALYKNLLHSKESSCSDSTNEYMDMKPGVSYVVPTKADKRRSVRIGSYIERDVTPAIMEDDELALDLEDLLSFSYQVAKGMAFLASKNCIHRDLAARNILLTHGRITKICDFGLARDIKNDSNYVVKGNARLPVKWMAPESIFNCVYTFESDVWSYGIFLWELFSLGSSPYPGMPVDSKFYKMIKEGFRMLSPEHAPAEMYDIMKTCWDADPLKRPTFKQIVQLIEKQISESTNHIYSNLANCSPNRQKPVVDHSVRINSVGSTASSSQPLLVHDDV
Sequence of UniProt P25105 (whole entry, looked up): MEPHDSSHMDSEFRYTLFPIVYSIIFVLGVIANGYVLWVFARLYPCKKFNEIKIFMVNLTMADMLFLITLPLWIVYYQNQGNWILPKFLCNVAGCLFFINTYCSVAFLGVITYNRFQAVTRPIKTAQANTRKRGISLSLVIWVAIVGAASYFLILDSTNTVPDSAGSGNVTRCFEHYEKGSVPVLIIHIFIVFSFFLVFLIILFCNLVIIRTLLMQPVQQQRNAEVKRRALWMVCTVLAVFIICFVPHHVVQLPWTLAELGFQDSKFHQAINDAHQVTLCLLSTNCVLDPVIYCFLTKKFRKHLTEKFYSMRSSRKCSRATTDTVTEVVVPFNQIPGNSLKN
Sequence of UniProt Q9NRG4 (whole entry, looked up): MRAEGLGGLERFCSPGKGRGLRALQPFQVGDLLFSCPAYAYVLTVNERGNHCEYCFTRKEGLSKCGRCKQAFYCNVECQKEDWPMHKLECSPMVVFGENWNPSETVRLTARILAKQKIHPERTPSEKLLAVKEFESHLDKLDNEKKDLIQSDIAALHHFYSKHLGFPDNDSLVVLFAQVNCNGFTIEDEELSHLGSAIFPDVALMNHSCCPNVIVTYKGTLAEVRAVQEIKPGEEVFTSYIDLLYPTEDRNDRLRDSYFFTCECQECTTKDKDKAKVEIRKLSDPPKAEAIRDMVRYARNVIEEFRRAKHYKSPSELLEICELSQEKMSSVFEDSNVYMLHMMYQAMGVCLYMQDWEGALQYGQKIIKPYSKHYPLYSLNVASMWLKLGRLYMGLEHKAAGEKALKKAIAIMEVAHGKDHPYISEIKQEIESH
Sequence of UniProt O08914 (whole entry, looked up): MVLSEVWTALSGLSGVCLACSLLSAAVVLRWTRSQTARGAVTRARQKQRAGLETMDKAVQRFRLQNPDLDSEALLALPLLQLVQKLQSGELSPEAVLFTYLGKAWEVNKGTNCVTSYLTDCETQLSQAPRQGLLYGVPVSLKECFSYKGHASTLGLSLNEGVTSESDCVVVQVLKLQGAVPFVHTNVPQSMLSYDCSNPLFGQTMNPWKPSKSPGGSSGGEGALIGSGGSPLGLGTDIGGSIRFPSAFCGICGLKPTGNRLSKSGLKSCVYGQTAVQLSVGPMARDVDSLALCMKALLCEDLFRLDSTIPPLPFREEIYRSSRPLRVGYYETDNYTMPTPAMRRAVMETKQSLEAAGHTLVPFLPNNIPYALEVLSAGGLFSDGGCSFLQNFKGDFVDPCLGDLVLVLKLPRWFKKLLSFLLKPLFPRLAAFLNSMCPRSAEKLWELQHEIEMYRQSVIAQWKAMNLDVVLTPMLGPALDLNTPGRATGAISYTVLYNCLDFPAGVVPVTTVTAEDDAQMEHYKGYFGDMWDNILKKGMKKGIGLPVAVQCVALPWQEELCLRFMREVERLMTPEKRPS
Sequence of UniProt P51617 (whole entry, looked up): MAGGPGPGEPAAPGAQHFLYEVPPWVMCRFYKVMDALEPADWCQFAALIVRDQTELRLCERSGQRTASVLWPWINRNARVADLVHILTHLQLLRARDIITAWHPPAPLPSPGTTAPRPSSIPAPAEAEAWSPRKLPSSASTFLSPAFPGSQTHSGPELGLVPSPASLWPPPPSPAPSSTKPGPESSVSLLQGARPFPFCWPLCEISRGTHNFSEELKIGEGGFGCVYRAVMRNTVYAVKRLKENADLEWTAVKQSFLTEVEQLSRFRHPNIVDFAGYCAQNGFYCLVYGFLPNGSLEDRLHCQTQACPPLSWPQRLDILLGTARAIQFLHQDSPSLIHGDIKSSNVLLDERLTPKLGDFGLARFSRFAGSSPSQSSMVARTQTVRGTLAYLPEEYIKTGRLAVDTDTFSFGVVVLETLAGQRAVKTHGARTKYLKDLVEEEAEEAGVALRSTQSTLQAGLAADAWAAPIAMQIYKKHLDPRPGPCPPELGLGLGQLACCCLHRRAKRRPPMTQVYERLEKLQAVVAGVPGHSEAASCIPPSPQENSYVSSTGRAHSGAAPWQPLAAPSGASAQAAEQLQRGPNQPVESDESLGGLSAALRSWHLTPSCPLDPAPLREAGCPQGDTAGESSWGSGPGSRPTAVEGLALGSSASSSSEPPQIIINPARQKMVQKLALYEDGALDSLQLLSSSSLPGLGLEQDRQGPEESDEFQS
Sequence of UniProt P15823 (whole entry, looked up): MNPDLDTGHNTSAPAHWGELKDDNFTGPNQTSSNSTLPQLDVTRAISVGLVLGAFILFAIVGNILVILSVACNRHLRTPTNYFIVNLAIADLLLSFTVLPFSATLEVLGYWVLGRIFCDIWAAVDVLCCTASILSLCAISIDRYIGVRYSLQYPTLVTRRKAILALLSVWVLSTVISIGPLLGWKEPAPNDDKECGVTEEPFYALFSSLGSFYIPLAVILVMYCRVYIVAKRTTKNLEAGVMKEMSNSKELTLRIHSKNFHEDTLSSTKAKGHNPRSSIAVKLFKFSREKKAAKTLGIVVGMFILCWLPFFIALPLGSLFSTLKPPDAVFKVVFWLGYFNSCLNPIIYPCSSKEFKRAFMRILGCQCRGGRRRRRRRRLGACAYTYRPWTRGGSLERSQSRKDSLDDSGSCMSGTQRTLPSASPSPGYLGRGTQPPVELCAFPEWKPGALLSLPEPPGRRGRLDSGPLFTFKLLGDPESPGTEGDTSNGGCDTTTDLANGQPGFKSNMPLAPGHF
Sequence of UniProt P48775 (whole entry, looked up): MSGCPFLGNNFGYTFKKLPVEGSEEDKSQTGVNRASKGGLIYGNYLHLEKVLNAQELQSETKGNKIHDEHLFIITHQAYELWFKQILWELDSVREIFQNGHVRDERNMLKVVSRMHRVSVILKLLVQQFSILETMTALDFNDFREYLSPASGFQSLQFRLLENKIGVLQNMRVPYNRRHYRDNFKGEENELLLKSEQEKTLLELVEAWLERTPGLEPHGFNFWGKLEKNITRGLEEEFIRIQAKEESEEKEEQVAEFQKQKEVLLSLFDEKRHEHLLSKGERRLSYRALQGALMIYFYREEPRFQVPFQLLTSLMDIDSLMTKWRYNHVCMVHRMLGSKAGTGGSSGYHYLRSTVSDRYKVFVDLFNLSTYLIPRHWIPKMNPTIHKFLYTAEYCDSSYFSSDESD

Compound | tested on | assay | test system | conditions | quantity | value
CCOC(=O)[C@](CC)(CCCSCCOCCOCCNC(=O)c1ccc(-c2c3ccc(=N)c(S(=O)(=O)O)c-3oc3c(S(=O)(=O)O)c(N)ccc23)c(C(=O)O)c1)NC(=O)c1ccc(C2CC2)c(Cc2ccc(F)cc2)n1 | Type-1 angiotensin II receptor (AGTR1, Homo sapiens, UniProt P30556) | ligand displacement, radioligand | – | 10 µM | inhibition | 0%
COc1ccc(F)cc1S(=O)(=O)Nc1cnc2c(c1)C(=O)NCCO2 | Platelet-activating factor receptor (PTAFR, Homo sapiens, UniProt P25105) | ligand displacement, radioligand | – | 10 µM | inhibition | -2%
N[C@H](C(=O)N1CCCC1)C1CCN(c2nccc3c(-c4ncc(Cl)cc4Cl)cccc23)CC1 | NMDA receptor PCP site | binding, radioligand binding | – | 10 µM | inhibition | 11%
CN[C@@H]1[C@H](O)[C@H](NC)[C@H]2O[C@]3(O)[C@H](O[C@@H]2[C@H]1O)O[C@H](C)C[C@H]3NC(=O)Cc1cc(Cl)ccn1 | Alpha-1B adrenergic receptor (Adra1b, Rattus norvegicus, UniProt P15823) | ligand displacement, radioligand | – | 10 µM | inhibition | -2%
O=C(N1CCCCC1)n1ccnn1 | Fatty-acid amide hydrolase 1 (Faah, Mus musculus, UniProt O08914) | serine hydrolase activity, inhibitor, competitive gel-based ABPP | mouse T-cell proteome | 1 µM, 30 min, 37 °C | inhibition | > 95%
O=C(CN1CN(c2ccccc2)C2(CCN(C(=O)c3cnc4[nH]ncc4c3)CC2)C1=O)NCC(F)(F)F | Tyrosine-protein kinase SYK (SYK, Homo sapiens, UniProt P43405) | inhibitor | – | concentration not given | inhibition | < 50%
O=C(O)c1ccccc1/C=N/Nc1nc(-c2ccccc2Cl)cs1 | Ephrin type-B receptor 4 (EPHB4, Homo sapiens, UniProt P54760) | enzyme activity, inhibitor | – | 1 µM | inhibition | -2.68%
Cc1cc(-c2ccc3ccccc3c2)nnc1NCCN1CCN(C)CC1 | Sodium-dependent dopamine transporter (Slc6a3, Rattus norvegicus, UniProt P23977) | monoamine uptake, inhibitor | rat synaptosomes | 10000 nM | inhibition | 60%
O=C1NC2(CC2)COc2ncc(F)cc2[C@H]2COCCN2c2ccn3ncc1c3n2 | – | – | Sprague-Dawley rat, male, serum | oral, 10 mg/kg/day, 4 weeks daily, end of recovery period | creatine kinase activity | 531 ± 261 U/L
CCC1CC(c2ccc(C(=O)O)cc2C)=NN1c1ccc(C#N)c(Cl)c1 (centres unmarked) | N-lysine methyltransferase SMYD2 (SMYD2, Homo sapiens, UniProt Q9NRG4) | enzyme activity, inhibitor | – | 10 µM | inhibition | 0%
C=CC(=O)Nc1cc(-c2nn(C3CCC(N4CCN(C(C)=O)CC4)CC3)c3ncnc(N)c23)ccc1Oc1ccccc1 (centres unmarked) | Phosphatidylinositol 4,5-bisphosphate 3-kinase catalytic subunit beta isoform (PIK3CB, Homo sapiens, UniProt P42338) | inhibitor, KiNativ profiling | biochemical | 2 µM | inhibition | 11.6%
CN(C)[C@H]1C[C@@]23CC[C@@]4(O2)C(=CC[C@]2(C)[C@@H](c5ccc6ccncc6c5)CC[C@H]24)C=C3[C@@H](O)[C@@H]1O | Interleukin-1 receptor-associated kinase 1 (IRAK1, Homo sapiens, UniProt P51617) | ATP probe labelling, inhibitor, KiNativ profiling | – | 1 µM | inhibition | -3.1%
O=C(O)CCn1c(=O)oc2cc(Cl)c(Cl)cc21 | Tryptophan 2,3-dioxygenase (TDO2, Homo sapiens, UniProt P48775) | – | – | 100 µM | inhibition | 5%
C[C@H](NCc1ccc(-c2ccc(C(F)(F)F)cc2)cc1)C(N)=O | Serine/threonine-protein kinase STK11 (STK11, Homo sapiens, UniProt Q15831) | cell-free assay, competition with immobilised ligand | – | 1 µM | inhibition | 0%
CS(C)(=O)=Nc1ccc(-c2ccc(-c3nc4cc(O[C@@H]5CO[C@H]6[C@@H]5OC[C@H]6O)[nH]c4cc3F)cc2)cc1 | Neuromedin-U receptor 2 (NMUR2, Homo sapiens, UniProt Q9GZQ4) | ligand displacement, radioligand | – | 10 µM | inhibition | 0%
O=S(=O)(F)c1cccc(S(=O)(=O)Nc2ccc(N3CCNCC3)c(F)c2)c1 | GTPase KRas, with RAF (KRAS, Homo sapiens, UniProt P01116) | KRAS-RAF interaction, NanoBRET | HEK293T | concentration not given, 24 h | inhibition | no inhibition
CC(C)[C@H]1NC(=O)C[C@H]2/C=C/CCSSC[C@@H](NC1=O)C(=O)N[C@H](Cc1cccc3ccccc13)C(=O)NCC(=O)O2 | Mast/stem cell growth factor receptor Kit (KIT, Homo sapiens, UniProt P10721, V560G) | enzyme activity, inhibitor | – | 10 µM | inhibition | -3.9%

Some of these lines once more:
Compound | tested on | assay | test system | conditions | quantity | value
O=C(N1CCCCC1)n1ccnn1 | Fatty-acid amide hydrolase 1 (Faah, Mus musculus, UniProt O08914) | serine hydrolase activity, inhibitor, competitive gel-based ABPP | mouse T-cell proteome | 1 µM, 30 min, 37 °C | inhibition | > 95%
O=S(=O)(F)c1cccc(S(=O)(=O)Nc2ccc(N3CCNCC3)c(F)c2)c1 | GTPase KRas, with RAF (KRAS, Homo sapiens, UniProt P01116) | KRAS-RAF interaction, NanoBRET | HEK293T | concentration not given, 24 h | inhibition | no inhibition
CCC1CC(c2ccc(C(=O)O)cc2C)=NN1c1ccc(C#N)c(Cl)c1 (centres unmarked) | N-lysine methyltransferase SMYD2 (SMYD2, Homo sapiens, UniProt Q9NRG4) | enzyme activity, inhibitor | – | 10 µM | inhibition | 0%
